Assay results of several laboratories.
Numbered parts are unrelated; each lists some results of a single study.

Set 1
Target: Prothrombin, mature alpha-thrombin (F2, Homo sapiens, UniProt P00734)
Technique: aptamer microarray, sandwich
Molecule type: DNA with 2'F-ANA
Medium: in vitro
Tested at: 200 nM
Notes: whole 15-mer aptamer, many near background
Added: Cy3 exosite-II aptamer, 400 nM
Direction: higher = stronger binding
Oligonucleotide: GGTTGGTGTGGTTGG
| Modification | mean fluorescence intensity [a.u.] |
| --- | --- |
| 2'F-ANA at 2 10 11 13 | 165 |
| 2'F-ANA at 3 5 8 12 15 | 318 |
| 2'F-ANA at 2 3 6 14 15 | 350 |
| 2'F-ANA at 1 7 8 10 11 13 15 | 57.8 |
| 2'F-ANA at 1 2 3 4 7 8 12 13 | 347 |
| 2'F-ANA at 2 3 4 5 6 8 11 14 15 | 51.8 |
| 2'F-ANA at 1 5 9 12 | 124 |
| 2'F-ANA at 1 3 4 5 6 8 10 11 12 13 14 | 53 |
| 2'F-ANA at 1 2 7 8 | 234 |
| 2'F-ANA at 4 6 7 8 10 12 13 14 15 | 58.1 |
| 2'F-ANA at 2 3 7 8 10 12 14 | 328 |
| 2'F-ANA at 4 5 7 8 10 11 13 | 44.2 |
| 2'F-ANA at 4 5 6 7 9 11 13 14 15 | 44.4 |
| 2'F-ANA at 1 2 6 7 8 12 14 15 | 74.8 |
| 2'F-ANA at 1 3 4 5 7 10 11 14 15 | 54.1 |
| 2'F-ANA at 1 2 3 5 6 7 8 9 12 | 132 |
| 2'F-ANA at 5 6 9 10 13 14 15 | 45.4 |
| 2'F-ANA at 2 3 6 8 9 10 14 15 | 258 |

Set 2
Target: Fragile X messenger ribonucleoprotein 1, C-terminal low-complexity region (Fmr1, Mus musculus, UniProt P35922)
Technique: RNA Bind-n-Seq
Molecule type: RNA
Medium: in vitro
Tested at: 200 nM
Notes: whole 134-nt RNA, ends assumed
Added: 150 mM LiCl
Baseline: input library
Direction: higher = stronger binding
All molecules: 7-deaza-guanosine replaces G
Shared flanks, not repeated: GGGAGUUCUACAGUCCGACGAUC … UGGAAUUCUCGGGUGUCAAGG
| Oligonucleotide | log2 enrichment |
| --- | --- |
| GCAGGAAGUAAAAACAAAUGGAAAUGCUACGGAUAGUGGCAGGGGUGGGGGUUGCUAAGGAAAGGGUGGGAUGGGAGUGGGUAAAGAGUU | 1.64 |
| UUUUACAACCCCAAUUUAAAGAAAGUUGUAGAGGCCCACAAGAUCGUUCUCUGCGCUGUAAGCCAUGUUUUCAUGCUGCUUUUCAAUGUG | -2.07 |
| UUAUGGAGUUUGGCCCUGAGGACAUGCUGCUGGGCAUGGAUGAGGCUGAAGAUGAUGAGGACCUGGAGGCUGAGCUGCUGGCUCUCACAG | -1.95 |
| GUGCUACACAUCGUAUGUACCGAAUCGGGGUUUUUUUGGGGAAAAAAAGGGGAAAAAAAGGGGAAAGUAUUAUGUUACGCCGUUCGGAUC | -1.95 |
| CCUGUGCUACACAUCGUAUGUACCGAAUCGGGGUUUUUUUGGGGAAAAAGGGGUUUGGGGAAAGUAUUAUGUUACGCCGUUCGGAUCUGC | -2.04 |
| UGGGAGGUGGAUUUUGUUUAUUUUUUUAGCUCAUUUCCAGGGGUGGGAAUUUUUUUUUAAUAUGUGUCAUGAAUAAAGUUGUUUUUCAAA | 0.448 |
| CACAGACAACACGCACCCACCCAGACACAGAGGGAAGGGGUUGGGAUGGGGACAGGGUGCACAGCAGGGCGGGGUAGGACCCCAGCCCCU | -1.07 |
| GUCCUGUGCUACACAUCGUAUGUACCGAAUCGGGGAAAGGGGAGGGGAAAAAAAGGGGAAAGUAUUAUGUUACGCCGUUCGGAUCUGCAC | 1.4 |
| CACAGACAACACGCACCCACACAGACACAGAGGGAAGGGGUUGGGGUGGGGACAGGGUGCACAGCAGGGCGGGGUAGGACCCCAGCCCCU | 1.43 |
| UCCUGUGCUACACAUCGUAUGUACCGAAUCGGGGUUUUUGGGGAAAAAAAGGGGAGGGGAAAGUAUUAUGUUACGCCGUUCGGAUCUGCA | -0.793 |
| CUCAAGUCCUGUGCUACACAUCGUAUGUACCGAAUCGGGGUUGGGGUUGGUUGGAAAGUAUUAUGUUACGCCGUUCGGAUCUGCACUUCC | -0.625 |

Set 3
Target: Interferon regulatory factor 7, full length, phosphomimetic (IRF7, Homo sapiens, UniProt Q92985, residues 1-503, S101K/S471D/S472D/S475D/S476D/S477D/S483D/S484D/S487D)
Chain of UniProt Q92985 (whole entry, unmodified, looked up): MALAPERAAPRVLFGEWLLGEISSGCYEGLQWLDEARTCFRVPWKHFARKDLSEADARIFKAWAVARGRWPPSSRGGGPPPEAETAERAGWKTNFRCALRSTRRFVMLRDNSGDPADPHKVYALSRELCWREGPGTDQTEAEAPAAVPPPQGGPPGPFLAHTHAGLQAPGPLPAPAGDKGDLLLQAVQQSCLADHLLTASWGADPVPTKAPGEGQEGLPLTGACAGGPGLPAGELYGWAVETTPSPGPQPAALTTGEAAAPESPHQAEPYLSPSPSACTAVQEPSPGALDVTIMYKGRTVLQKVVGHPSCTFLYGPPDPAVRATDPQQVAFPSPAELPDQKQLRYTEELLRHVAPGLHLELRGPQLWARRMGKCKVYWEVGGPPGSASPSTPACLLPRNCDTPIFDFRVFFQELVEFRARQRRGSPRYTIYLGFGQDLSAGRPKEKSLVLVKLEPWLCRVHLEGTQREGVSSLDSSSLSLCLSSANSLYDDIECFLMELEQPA
Technique: protein-binding microarray
Molecule type: double-stranded DNA, one strand shown
Medium: in vitro
Tested at: 250 nM
Notes: 60-bp whole probe
Added: salmon DNA 0.4 mg/ml
Baseline: random background probes
Direction: higher = stronger binding
Shared flanks, not repeated: GCCTAGCAC … GTCTTGATTCGCTTGACGCTGCTG
| Oligonucleotide | log fluorescence |
| --- | --- |
| GACGGTCTCCTGATCCTGACGTGCTAG | -0.272 z-score |
| GACGGTTCCCTTTTACTGACGTGCTAG | 3.64 z-score |
| GACGCTTCCGGTTTCGGGACGTGCTAG | 4.38 z-score |
| TCACTTGTCCCTCCGGGACTGTGCTAG | 0.474 z-score |
| TCAAGTCTGGGCTACAACACTGTGCTA | -0.955 z-score |
| AGAGTTCCAGACAGCTCCCTGTGCTAG | -0.122 z-score |
| GACGGTCTCCTTATCGTGACGTGCTAG | -0.0422 z-score |
| TTAGGACTGGGTCTCTGTTAGTGCTAG | 0.201 z-score |
| GGACACGGATGCGGTCTGCCGTGCTAG | -0.0882 z-score |
| CTGCATTTTTTTTTTCTACTGTGCTAG | 0.452 z-score |
| TTAGGTATCCTTTTCCTTTAGTGCTAG | 1.57 z-score |
| GACGGTATCGGGTTTCGAGACGTGCTA | 4.18 z-score |
| AACGGTTCCGGTTTCGGGACGTGCTAG | 7.58 z-score |
| TTAGGTTTCGGTATTGGTTAGTGCTAG | 10.3 z-score |
| GACGGTTTCGACACTCGGGACGTGCTA | 4.82 z-score |
| GACGGGATCCTTATCCTGACGTGCTAG | -0.413 z-score |
| GACGATATCAGTAACGAGACGTGCTAG | 0.0641 z-score |
| TTAGGTATCGACATTGGGTTAGTGCTA | 0.417 z-score |
| TTAGGTATTGGTATCGGTTAGTGCTAG | 1.32 z-score |
| TCATACTTCTCTTTTTGACTGTGCTAG | 1.09 z-score |
| TCAGTTTCTGGTTTATTACTGTGCTAG | 5.95 z-score |

Set 4
Target: RNA binding protein fox-1 homolog 2, RRM domain, GST-SBP tag (RBFOX2, Homo sapiens, UniProt O43251-10, residues 100-194)
Technique: RNA Bind-n-Seq
Molecule type: RNA
Medium: in vitro
Tested at: 365 nM
Notes: natural RNA segment, single round, ends assumed
Baseline: no-protein control
Direction: higher = stronger binding
Shared flanks, not repeated: GGGAGUUCUACAGUCCGACGAUC … UGGAAUUCUCGGGUGCCAA
Construct (chain): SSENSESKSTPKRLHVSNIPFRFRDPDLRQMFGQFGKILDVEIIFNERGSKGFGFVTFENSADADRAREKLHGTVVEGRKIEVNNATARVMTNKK
| Oligonucleotide | RBNS enrichment (R) |
| --- | --- |
| UAGUCUAACUCACCUAUUAACCUCUCUCAUCCUGGGUCAUCCUCCCUCCUUUCUCAGUGUCUGAUUCUCCACCCUCACACUCCCCACACCCACUCUCCCAUGCUUCUUUU | 1.03 |
| AUUAAUAUUCCCAUUUUAUUAAUAAUAUUUAUGUUGGGUCAAGUGUUAGGUCAAUAACACUGUAUUUUAAUGUACUUGAAAAAUGUUUUUAUUUUUGUUUUAUUUUUGAC | 0.49 |
| CUAACGAAACUCUCAAAUUCAUUAUCUACUUCAUGAGAAUUUAUUUGUAUUCAUUAACAUUAGUAAUACCUAUUUUUCUUAAGAGCCUUCUUUUUUCCCUUUUGUUUCUU | 1.11 |
| UUAAUGUUUGUGGCUUUCUCUCCAGCCUCUCUUAGGAGGGGUAAUGGUGGAGUUGGCAUCUUGUAACUCUCCUUUCUCCUUUCUUCCCCUUUCUCUGCCCGCCUUUCCCA | 0.537 |
| UCUGAGGUCCCCAGAGACCAAAGCCAGAUCGUCUGUCCCCCACACCUUAGGUGGGCACAGGAGGGCCGAGCUUGUUUCUACCCACUGGCAGCUGCUGACUCAACUCUGGG | 0.476 |
| GGUGUGAGCCAUUAUACCUGGCUUUCAGGUAUGUUUUCUUAAGACUGCCAUCACAAAUGUCCCGGGGCCUCCUGCAAGACAGUAAUGAAUCCAGGUUAUAGUGCCUUCGA | 0.242 |
| CCAGCGUCCUAACUGACUGUAAUCGACCGGGUUUUCAUCCCCUGUCCCAUCCCCUGAGCAUCUUUUCGUAUUUAGAUUUGUCUCUGUUAAAAUGAUGAAACGGAAAUCGG | 0.351 |
| CUACAACCAGCUGGCACUGACUGCUCGACUUUUCCGGCCACGGCUCAUCAUAGCUGGCACCAGCGCCUAUGCUCGCCUCAUUGACUACGCCCGCAUGAGAGAGGUGUGUG | 8.01 |
| AUGCCAAUAGUAGGUGAGAGUGUAUUGCACAGAGUUGGAGAUAGUAAGGUGGUGACAUUUAACACAGUUACUCUGUCUUUUUUCAGAUUAUGGGUAUUUAUCCUCUAUUA | 1.77 |
| UGUUUUUUGUGUUUUCCCUCUAUUUUCAACCAAAUCCUAGAGCCAGCUGAGACUGCUGAGUAAUCUGAAGGCGAGAGCAAGGAUAUACCAGCGAGGUCAGCCCCUCUAGA | 0.375 |
| UGGCCUAUUUCCAGUUUUAUGUGAGUCAUGUAAAAAAGCCUUGGCUCUCUACCUAUUAAGAAUGUCUCUUUCUCUGUAUUUAUUAAGCUUCAAACUUUAUUGCUUCGAUU | 0.628 |
| UAUAUUGUAUUUAUAUAUAAAAAGAAACGUCUACGUAUGCAUGCUAAAUUAUUAUUUAGCUUCUCCCAUCGCCCACGAUGGAAUGUAAAAUAAAUUGGUUUUGUACUGGA | 0.886 |

Set 5
Target: Sal-like protein 4, full length isoform A (SALL4, Homo sapiens, UniProt Q9UJQ4, residues 1-1053)
Chain of UniProt Q9UJQ4 (whole entry, looked up): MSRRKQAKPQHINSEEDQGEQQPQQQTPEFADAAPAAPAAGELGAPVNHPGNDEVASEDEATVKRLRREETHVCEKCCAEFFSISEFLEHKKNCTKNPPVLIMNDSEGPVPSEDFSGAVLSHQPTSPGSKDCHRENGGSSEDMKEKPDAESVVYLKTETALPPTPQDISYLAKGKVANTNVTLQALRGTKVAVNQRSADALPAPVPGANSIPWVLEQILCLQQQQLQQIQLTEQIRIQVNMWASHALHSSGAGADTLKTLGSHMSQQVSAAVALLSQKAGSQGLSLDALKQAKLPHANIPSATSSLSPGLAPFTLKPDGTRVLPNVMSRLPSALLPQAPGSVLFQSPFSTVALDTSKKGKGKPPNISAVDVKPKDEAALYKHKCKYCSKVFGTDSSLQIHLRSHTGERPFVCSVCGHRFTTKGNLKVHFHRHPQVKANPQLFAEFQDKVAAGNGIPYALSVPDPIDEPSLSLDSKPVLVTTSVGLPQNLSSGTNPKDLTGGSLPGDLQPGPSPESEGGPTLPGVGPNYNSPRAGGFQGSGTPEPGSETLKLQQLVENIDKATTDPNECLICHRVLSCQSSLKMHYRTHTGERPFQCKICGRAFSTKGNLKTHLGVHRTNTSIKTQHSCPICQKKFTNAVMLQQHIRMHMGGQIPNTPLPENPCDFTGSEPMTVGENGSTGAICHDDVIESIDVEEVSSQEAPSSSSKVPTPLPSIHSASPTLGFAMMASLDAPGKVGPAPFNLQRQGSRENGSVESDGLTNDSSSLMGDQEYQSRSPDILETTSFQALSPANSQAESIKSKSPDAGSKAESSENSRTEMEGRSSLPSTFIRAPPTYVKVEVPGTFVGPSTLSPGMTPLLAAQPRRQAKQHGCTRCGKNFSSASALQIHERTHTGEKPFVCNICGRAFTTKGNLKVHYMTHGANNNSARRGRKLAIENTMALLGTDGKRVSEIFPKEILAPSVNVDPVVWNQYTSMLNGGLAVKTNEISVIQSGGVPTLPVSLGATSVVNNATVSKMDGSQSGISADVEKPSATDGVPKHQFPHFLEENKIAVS
Technique: universal PBM
Molecule type: double-stranded DNA, one strand shown
Medium: in vitro
Tested at: 600 nM
Notes: 8-mer, flanks averaged, mean of replicates
Direction: higher = stronger binding
| Oligonucleotide | E-score |
| --- | --- |
| ATCCTTGC | -0.0367 |
| CCCGCCAG | -0.236 |
| ATTGCATG | 0.224 |
| AAGCCGAT | 0.0333 |
| TGAGATAA | 0.269 |
| CCATCGCG | -0.0645 |
| CTGGTAAG | 0.011 |
| CGGTGAAC | -0.0935 |
| TCAGCCGA | -0.16 |
| CGATATAG | 0.23 |
| CCATTCAA | 0.107 |
| ATCAACTC | 0.0653 |
| CGAATCCA | -0.118 |
| ACTAACTG | -0.0833 |
| GGAATTCC | -0.106 |
| TGATAAAA | 0.315 |
| TCATGACA | 0.0911 |
| ACATCGGC | -0.127 |

Excerpt of the above (set 1):
| Modification | mean fluorescence intensity [a.u.] |
| --- | --- |
| 2'F-ANA at 1 3 4 5 6 8 10 11 12 13 14 | 53 |
| 2'F-ANA at 1 2 7 8 | 234 |
| 2'F-ANA at 4 6 7 8 10 12 13 14 15 | 58.1 |
| 2'F-ANA at 2 3 7 8 10 12 14 | 328 |
| 2'F-ANA at 4 5 7 8 10 11 13 | 44.2 |
| 2'F-ANA at 4 5 6 7 9 11 13 14 15 | 44.4 |
| 2'F-ANA at 1 2 6 7 8 12 14 15 | 74.8 |
| 2'F-ANA at 1 3 4 5 7 10 11 14 15 | 54.1 |
| 2'F-ANA at 1 2 3 5 6 7 8 9 12 | 132 |
| 2'F-ANA at 5 6 9 10 13 14 15 | 45.4 |
| 2'F-ANA at 2 3 6 8 9 10 14 15 | 258 |
